Results of several laboratories.
Every numbered part comes from another study and shows a few of its results, in no order. Several values in a cell are separate wells, animals, samples, runs or records.
Chain of UniProt P08588 (whole entry, looked up): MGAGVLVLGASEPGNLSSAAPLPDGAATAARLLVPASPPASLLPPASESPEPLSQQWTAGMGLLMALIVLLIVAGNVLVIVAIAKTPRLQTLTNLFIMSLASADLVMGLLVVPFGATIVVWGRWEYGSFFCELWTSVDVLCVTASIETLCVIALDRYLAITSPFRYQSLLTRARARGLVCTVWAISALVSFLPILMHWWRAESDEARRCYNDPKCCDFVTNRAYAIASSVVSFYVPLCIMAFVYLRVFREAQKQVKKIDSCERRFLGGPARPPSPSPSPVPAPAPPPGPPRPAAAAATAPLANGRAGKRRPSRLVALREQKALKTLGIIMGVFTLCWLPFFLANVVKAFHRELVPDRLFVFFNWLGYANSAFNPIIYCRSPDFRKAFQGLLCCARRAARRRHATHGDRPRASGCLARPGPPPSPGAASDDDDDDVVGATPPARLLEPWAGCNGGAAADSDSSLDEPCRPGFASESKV
Chain of UniProt P21918 (whole entry, looked up): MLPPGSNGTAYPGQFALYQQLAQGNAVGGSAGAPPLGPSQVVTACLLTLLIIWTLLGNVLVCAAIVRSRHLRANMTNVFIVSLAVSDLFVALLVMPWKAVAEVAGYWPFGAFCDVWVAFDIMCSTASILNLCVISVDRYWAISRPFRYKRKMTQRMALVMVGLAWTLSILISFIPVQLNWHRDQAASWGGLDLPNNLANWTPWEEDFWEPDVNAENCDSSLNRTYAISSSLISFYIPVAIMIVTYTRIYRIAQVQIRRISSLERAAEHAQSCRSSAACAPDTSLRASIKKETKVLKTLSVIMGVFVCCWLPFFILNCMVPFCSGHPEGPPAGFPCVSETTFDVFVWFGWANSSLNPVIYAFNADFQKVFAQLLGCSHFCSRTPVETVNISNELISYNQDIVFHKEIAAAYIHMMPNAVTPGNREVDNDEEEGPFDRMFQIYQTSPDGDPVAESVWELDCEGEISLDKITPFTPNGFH

Series 1 — SMILES: C=CCc1ccc(O)c(-c2ccc(O)c(CC=C)c2)c1; effect on: chloride current; method: whole-cell voltage clamp
ANO1 del476-501: Anoctamin-1 (ANO1, Homo sapiens, UniProt Q5XXA6, del476-501)
Chain of UniProt Q5XXA6 (whole entry, unmodified, looked up): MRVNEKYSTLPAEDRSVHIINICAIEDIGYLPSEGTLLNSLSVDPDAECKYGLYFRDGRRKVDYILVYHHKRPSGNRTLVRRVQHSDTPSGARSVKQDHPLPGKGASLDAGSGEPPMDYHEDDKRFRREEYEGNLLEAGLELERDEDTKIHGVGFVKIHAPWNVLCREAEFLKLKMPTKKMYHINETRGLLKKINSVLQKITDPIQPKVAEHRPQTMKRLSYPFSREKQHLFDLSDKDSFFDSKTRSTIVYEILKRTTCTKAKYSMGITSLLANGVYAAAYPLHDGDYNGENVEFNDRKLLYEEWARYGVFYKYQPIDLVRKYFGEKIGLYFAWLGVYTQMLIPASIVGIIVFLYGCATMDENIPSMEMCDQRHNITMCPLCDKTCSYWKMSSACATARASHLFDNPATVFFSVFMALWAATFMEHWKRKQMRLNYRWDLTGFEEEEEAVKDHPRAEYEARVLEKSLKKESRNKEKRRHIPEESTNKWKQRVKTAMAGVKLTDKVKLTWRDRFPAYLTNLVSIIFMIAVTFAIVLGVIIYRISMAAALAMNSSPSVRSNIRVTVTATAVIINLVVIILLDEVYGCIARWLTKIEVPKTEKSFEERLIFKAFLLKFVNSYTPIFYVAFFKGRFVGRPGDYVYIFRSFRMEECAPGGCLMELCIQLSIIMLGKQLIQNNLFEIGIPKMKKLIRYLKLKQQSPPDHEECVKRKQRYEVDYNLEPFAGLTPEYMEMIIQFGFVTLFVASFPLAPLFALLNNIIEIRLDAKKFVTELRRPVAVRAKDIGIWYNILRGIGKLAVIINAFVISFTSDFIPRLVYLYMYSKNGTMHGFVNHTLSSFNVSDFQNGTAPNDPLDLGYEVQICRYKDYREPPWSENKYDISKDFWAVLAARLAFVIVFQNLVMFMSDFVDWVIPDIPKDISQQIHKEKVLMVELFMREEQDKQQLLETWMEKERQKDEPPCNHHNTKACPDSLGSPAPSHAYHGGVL
ANO1 del476-501/E650A: Anoctamin-1 (ANO1, Homo sapiens, UniProt Q5XXA6, del476-501/E650A)
target | assay | conditions | IC50
ANO1 del476-501 | inhibitor | -60 mV voltage, added: 300 nM Ca2+ | 2.82 µM
Anoctamin-1 (ANO1, Homo sapiens, UniProt Q5XXA6, del476-501/F807A) | – | membrane voltage -60 mV | 35.3 µM
ANO1 del476-501/E650A | – | membrane voltage 60 mV | 3.61 µM
ANO1 del476-501/E650A | – | membrane voltage 40 mV | 3.31 µM
ANO1 del476-501 | – | membrane voltage -80 mV, added: 300 nM Ca2+ | 3.01 µM
Anoctamin-1 (ANO1, Homo sapiens, UniProt Q5XXA6, del476-501/F627A) | – | membrane voltage -20 mV | 5.53 µM
Anoctamin-1 (ANO1, Homo sapiens, UniProt Q5XXA6, del476-501/F803Y) | inhibitor | 80 mV holding voltage | 12 µM
Anoctamin-1 (ANO1, Homo sapiens, UniProt Q5XXA6, del476-501/F807I) | inhibitor | F781I mutant at -100 mV | 17.3 µM

Series 2 — cell line: mouse MPNST tumor cells; method: high-content nuclear imaging; item: cell number; tested at: 10 µM; time: 12 h; setting: mean of 2 replicates; baseline: plate mean; reading: higher = more cells
SMILES | nuclei count
NNC(=O)c1ccncc1 | 1.23 z-score and 2.24 z-score
CCNC1(C(N)=O)CCN(c2ncnc3c2nc(-c2ccccc2Cl)n3-c2ccc(Cl)cc2)CC1 | 1.57 z-score
O=C(Nc1ccccc1)N1CCN(c2nc(-c3ccccc3)ns2)CC1 | -0.292 z-score
CC(=O)NC[C@H]1CN(c2ccc(N3CCOCC3)c(F)c2)C(=O)O1 | 1.48 z-score and -0.371 z-score
COc1ccccc1OCCNCC(O)COc1cccc2[nH]c3ccccc3c12 (stereo not shown) | -2.88 z-score
O=c1[nH]cnc2c1ncn2[C@H]1CC[C@@H](CO)O1 | -1.04 z-score
COc1c(C)cc(NC(=O)c2nn(Cc3ccc(F)cc3)c3c2CN(C(=O)c2ccc[nH]2)C[C@]3(C)C(N)=O)cc1C | 3.11 z-score
CN(C)CCCN1c2ccccc2Sc2ccc(Cl)cc21 | -5.58 z-score

Further values, each from its own experiment
Structure (SMILES) | target | assay | conditions | measurement | value
Cc1cc(C)c(-n2ccn3nc(-c4cccnc4)cc23)cc1NC(=O)c1cc(C#N)cc(S(F)(F)(F)(F)F)c1 | D(1B) dopamine receptor (DRD5, Homo sapiens, UniProt P21918) | binding, radioligand binding | 10 µM | inhibition | -22.5%
Cc1ccc(C(=O)Nc2ccc(CN3CCN(C)CC3)c(C(F)(F)F)c2)cc1C#Cc1cnc2cccnn12 | Receptor-type tyrosine-protein kinase FLT3, ITD (FLT3, Homo sapiens, UniProt P36888) | cell-based | concentration not given | FLT3-HSP90 interaction | decreased
Cc1cc2c(OCC(CNC(C)(C)C)OC(=O)c3ccccc3)cccc2[nH]1 (stereo not shown) | Beta-1 adrenergic receptor (ADRB1, Homo sapiens, UniProt P08588) | – | – | EC50 | 0.526 µM

Some of these lines once more (series 1):
target | assay | conditions | IC50
ANO1 del476-501 | – | membrane voltage -80 mV, added: 300 nM Ca2+ | 3.01 µM
